Results gathered from unrelated publications.
Protocols differ between the studies behind these lines. “And” joins repeats or separate records; there may be more than shown. ± gives the spread as reported.
CNR2: Cannabinoid receptor 2 (CNR2, Homo sapiens, UniProt P34972)
Chain of UniProt P34972 (whole entry, unmodified, looked up): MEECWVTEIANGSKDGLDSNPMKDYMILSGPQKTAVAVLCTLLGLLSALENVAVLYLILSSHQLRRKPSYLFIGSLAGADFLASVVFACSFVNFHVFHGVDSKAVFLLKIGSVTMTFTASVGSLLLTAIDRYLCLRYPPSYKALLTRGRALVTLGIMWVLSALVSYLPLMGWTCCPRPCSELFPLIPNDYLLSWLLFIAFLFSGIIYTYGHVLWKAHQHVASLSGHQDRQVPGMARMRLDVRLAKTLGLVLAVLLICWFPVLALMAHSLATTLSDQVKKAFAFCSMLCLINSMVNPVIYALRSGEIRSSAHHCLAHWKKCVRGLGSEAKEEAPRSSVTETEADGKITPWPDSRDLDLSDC

SMILES	target	assay	system	setting	quantity	value
CCCCCn1cc(C(=O)c2ccc3ccccc3c2)c2ccccc21	CNR2	G protein activation, agonist, BRET	–	–	EC50	44.7 nM
CC1=C[C@H]2c3c(O)cc(CCc4ccccc4)cc3OC(C)(C)[C@H]2CC1	CNR2	GTPγS binding, agonist, radiometric	–	cell membranes	EC50	167 nM
CCOC(=O)C(CC)(CC)NC(=O)c1ccc(N2CC(OC)C2)c(OC[C@H]2C[C@@H]2CO)n1	CNR2	inverse agonist, HTRF cAMP	CHO cells stably expressing receptor	–	IC50	4.4 nM
CC(O)CCn1cc(C(=O)c2cccc3ccccc23)c2ccccc21 (centres unmarked)	CNR2	ligand displacement, radioligand	–	cell membranes	Ki	31.4 nM and 31 nM
CCCCCn1cc(C(=O)c2ccc3c(c2)CC(C)(C)C3)c2ccccc21	CNR2 (Homo sapiens, UniProt P34972, V261L)	G protein activation, agonist, BRET	–	–	EC50	2820 nM
COC1CC(=O)N(C)C=CCCCC(=O)N(C)C(C(C)C)C(=O)N(C)C(CC(C)C)C(=O)OC(C(C)C)CC(C)C1 (centres unmarked)	CNR2	β-arrestin recruitment, antagonist	–	–	IC50	35000 nM
CCOC(=O)[C@@](CC)(CCCSCCOCCOCCNc1ccc([N+](=O)[O-])c2nonc12)NC(=O)c1ccc(C2CC2)c(Cc2ccc(F)cc2)n1	CNR2	cAMP, agonist	–	–	EC50	17 nM
CCOC(=O)C(CC)(CC)NC(=O)c1ccc(C2CC2)c(Cc2ccc(F)cc2)n1	CNR2	cAMP, agonist, TR-FRET	–	–	EC50	6.5 nM
CCOC(=O)[C@](CC)(CCCSCCOCCOCCNC(=O)c1ccc(-c2c3ccc(=N)c(S(=O)(=O)O)c-3oc3c(S(=O)(=O)O)c(N)ccc23)c(C(=O)O)c1)NC(=O)c1ccc(C2CC2)c(Cc2ccc(F)cc2)n1	CNR2	ligand displacement, radioligand	–	cell membranes	Ki	44 nM
O=C1C(=Cc2cn(Cc3ccc(F)cc3)c3ccccc23)N2CCC1CC2	CNR2	cAMP level, agonist	CHO expressing human CB2	added: 10 µM forskolin	IC50	3.6 ± 2.5 nM
CCCCCn1cc(C(=O)c2cccc3c2CC(C)(C)C3)c2ccccc21	CNR2 (Homo sapiens, UniProt P34972, I110L)	G protein activation, agonist, BRET	–	–	EC50	4570 nM
